Published values pooled from the literature.
Each line is one published result; not all experiments were run side by side. “And” joins repeats or separate records; there may be more than shown. ± marks the error that the study gave. Where no end group is shown, it is not given here.
B1: disulfide; chain RTCESKSHRFKGLCLSETNCKNVCHNEGFGGGNCRGARRRCFCTRHC (disulfide (positions not given here))

Molecule | target or system | test | test system | conditions | scale | endpoint | value
tunicamycin | Staphylococcus aureus | EUCAST broth microdilution | N315 MRSA | 18-24 h, 37 °C |  | MIC | > 64 mg/L
colistin sulfate | Pseudomonas aeruginosa | broth microdilution | C5 clinical isolate |  |  | MIC | 6.8 µM
DAPT | Enterococcus faecium |  | ATCC 700221 vancomycin-resistant |  |  | MIC | 6.2 mg/L
ceftiofur sodium | Staphylococcus aureus |  | USA300 | alone, median and range |  | MIC | 16 mg/L
nonaarginine | PorA peptide pore | peptide binding, planar bilayer single-channel recording |  | pH 7.4, +20 mV, trans side, 150 mM KCl |  | Kd | 1.97 ± 0.2 µM
aspterric acid |  |  | Arabidopsis thaliana Col-0 seeds | 12.5 µg/mL, seed germination |  | root length | 0.01 cm
Polymyxin B | Klebsiella pneumoniae | broth microdilution | KPC-127 producing |  |  | MIC | 32 mg/L
colistin | Acinetobacter baumannii |  | NCTC 13304, carbapenem-resistant |  |  | MIC | 0.5 mg/L
B1 | Botrytis cinerea | fungal growth |  |  |  | MIC | ≤ 0.38 µM
Polymyxin B | Helicobacter pylori | broth microdilution | SS1, BHI broth, 7% FBS | 48 h, 37 °C, microaerobic |  | MIC | 2 mg/L
Teicoplanin A2-2 | Enterococcus faecalis |  | vancomycin-resistant |  |  | MIC | > 32 mg/L
Polymyxin B |  |  | mouse | intraperitoneal, 20 mg/kg single dose, day 4 |  | survival | 100%
insulin human |  | measured: CAD | mouse, uninfected, brain | ip, dose not given, with: insulin | relative to: PBS-treated | mRNA fold change | 0.963
colistin | Klebsiella pneumoniae | broth microdilution | KPC-100 producing |  |  | MIC | 32 mg/L
HVLVMSATRR |  |  | peptide, C57BL/6J mice, male, serum | subcutaneous osmotic pump, 3 mg/kg/day peptide basis, 8 weeks |  | total bilirubin | 0.1 mg/dL and 0.3 mg/dL
thiostrepton | Enterococcus faecalis |  | vancomycin-susceptible |  |  | MIC | ≤ 0.03 mg/L
Polymyxin B | Klebsiella pneumoniae | broth microdilution, MH medium | carbapenem-resistant NCCP 15866 | 16 h, 37 °C |  | MIC | 2 µM
heparin sodium |  | measured: Diarrhea | human healthy Chinese adults | intravenous infusion, 8 IU/kg/h, 5 days |  | subjects with adverse event | 0%
polymyxin B | Neisseria gonorrhoeae | broth dilution | CDC-FDA AR Bank #0187 |  |  | MIC | 188 mg/L

Excerpt of the above:
Molecule | target or system | test | test system | conditions | scale | endpoint | value
insulin human |  | measured: CAD | mouse, uninfected, brain | ip, dose not given, with: insulin | relative to: PBS-treated | mRNA fold change | 0.963
nonaarginine | PorA peptide pore | peptide binding, planar bilayer single-channel recording |  | pH 7.4, +20 mV, trans side, 150 mM KCl |  | Kd | 1.97 ± 0.2 µM
